Experimental data gathered from unrelated publications.
Numbered parts are unrelated; each lists some results of a single study.
UniProt P07949, sequence (whole entry, unmodified, looked up): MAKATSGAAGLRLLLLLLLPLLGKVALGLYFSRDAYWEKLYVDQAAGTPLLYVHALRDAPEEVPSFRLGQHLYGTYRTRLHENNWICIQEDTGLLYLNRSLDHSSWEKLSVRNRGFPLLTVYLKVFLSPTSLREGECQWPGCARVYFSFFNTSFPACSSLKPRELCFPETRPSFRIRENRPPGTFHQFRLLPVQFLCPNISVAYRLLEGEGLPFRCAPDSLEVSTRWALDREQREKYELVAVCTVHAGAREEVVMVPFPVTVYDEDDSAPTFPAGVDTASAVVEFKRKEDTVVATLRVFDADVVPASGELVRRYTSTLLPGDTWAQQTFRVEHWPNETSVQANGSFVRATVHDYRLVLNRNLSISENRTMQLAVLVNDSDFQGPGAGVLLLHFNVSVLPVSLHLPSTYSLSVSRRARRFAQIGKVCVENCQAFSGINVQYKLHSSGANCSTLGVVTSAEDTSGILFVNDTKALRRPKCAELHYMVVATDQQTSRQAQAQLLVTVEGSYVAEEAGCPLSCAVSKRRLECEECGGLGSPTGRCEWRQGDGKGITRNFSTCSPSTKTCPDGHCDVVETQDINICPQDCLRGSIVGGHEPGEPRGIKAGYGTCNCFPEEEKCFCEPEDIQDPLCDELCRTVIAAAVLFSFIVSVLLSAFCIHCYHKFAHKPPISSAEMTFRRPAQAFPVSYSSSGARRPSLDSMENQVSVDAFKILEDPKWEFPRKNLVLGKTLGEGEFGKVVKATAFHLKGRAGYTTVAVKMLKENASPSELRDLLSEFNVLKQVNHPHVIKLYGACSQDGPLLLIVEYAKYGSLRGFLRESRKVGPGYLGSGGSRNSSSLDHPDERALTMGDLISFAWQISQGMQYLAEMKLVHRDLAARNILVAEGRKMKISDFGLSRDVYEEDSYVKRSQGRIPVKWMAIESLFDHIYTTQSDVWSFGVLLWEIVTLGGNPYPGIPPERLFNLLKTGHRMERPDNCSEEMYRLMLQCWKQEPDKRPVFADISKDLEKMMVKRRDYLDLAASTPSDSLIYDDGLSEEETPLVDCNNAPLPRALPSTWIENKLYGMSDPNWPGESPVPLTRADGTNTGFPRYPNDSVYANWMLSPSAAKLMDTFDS
UniProt O94921, sequence (whole entry, looked up): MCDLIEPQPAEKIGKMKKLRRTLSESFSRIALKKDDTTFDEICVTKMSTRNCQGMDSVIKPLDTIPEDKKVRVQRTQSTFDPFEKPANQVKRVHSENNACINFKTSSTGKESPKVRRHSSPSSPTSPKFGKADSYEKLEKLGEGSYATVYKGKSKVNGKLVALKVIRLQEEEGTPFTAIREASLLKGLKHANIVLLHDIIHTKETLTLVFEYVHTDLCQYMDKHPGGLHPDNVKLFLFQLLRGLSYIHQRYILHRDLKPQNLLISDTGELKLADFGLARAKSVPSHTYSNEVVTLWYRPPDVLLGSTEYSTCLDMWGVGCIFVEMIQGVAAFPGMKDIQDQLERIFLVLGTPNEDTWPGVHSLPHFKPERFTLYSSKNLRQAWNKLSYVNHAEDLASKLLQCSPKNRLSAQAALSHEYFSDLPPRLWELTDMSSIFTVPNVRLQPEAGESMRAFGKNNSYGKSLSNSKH
UniProt P21709, sequence (whole entry, looked up): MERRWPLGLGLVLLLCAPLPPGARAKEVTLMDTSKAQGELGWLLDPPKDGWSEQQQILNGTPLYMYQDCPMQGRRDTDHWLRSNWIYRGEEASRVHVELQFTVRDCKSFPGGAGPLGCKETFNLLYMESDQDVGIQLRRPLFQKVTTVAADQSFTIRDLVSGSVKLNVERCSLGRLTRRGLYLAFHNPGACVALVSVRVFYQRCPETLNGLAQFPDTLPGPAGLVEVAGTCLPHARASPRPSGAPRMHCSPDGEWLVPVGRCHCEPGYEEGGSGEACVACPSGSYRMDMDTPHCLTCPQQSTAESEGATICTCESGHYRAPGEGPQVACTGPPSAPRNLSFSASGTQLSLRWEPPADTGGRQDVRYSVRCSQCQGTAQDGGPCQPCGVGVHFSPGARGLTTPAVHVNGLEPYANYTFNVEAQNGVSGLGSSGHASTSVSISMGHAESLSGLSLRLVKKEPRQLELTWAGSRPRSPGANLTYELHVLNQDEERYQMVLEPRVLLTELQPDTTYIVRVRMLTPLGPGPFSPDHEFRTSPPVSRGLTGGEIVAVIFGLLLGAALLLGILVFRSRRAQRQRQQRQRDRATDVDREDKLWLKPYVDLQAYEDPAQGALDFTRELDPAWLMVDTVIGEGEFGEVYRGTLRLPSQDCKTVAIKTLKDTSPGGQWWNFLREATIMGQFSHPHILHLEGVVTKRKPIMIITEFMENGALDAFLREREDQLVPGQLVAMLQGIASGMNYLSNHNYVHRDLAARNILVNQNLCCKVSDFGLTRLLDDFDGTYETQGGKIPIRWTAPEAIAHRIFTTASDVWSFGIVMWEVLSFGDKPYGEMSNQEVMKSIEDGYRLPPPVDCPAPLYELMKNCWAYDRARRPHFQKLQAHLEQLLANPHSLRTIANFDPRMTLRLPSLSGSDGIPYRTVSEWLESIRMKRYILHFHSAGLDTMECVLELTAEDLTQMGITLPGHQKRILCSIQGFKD
UniProt Q9UPZ9, sequence (whole entry, looked up): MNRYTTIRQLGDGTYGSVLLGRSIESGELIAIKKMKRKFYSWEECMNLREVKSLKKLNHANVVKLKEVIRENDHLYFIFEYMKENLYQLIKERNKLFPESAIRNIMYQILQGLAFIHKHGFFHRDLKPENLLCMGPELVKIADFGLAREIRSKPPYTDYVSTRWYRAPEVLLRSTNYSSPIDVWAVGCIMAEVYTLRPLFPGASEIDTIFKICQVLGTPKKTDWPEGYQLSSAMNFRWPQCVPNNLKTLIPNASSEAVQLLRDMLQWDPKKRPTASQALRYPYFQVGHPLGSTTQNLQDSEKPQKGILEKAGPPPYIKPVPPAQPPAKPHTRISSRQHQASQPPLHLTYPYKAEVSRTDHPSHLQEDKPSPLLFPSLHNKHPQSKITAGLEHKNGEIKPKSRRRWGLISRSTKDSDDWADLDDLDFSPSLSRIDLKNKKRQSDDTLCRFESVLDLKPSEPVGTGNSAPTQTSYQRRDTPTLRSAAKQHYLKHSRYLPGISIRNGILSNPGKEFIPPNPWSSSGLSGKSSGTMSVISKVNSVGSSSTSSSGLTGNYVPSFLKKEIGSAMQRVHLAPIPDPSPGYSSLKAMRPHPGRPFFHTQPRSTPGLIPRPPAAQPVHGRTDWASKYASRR
UniProt O14976, sequence (whole entry, looked up): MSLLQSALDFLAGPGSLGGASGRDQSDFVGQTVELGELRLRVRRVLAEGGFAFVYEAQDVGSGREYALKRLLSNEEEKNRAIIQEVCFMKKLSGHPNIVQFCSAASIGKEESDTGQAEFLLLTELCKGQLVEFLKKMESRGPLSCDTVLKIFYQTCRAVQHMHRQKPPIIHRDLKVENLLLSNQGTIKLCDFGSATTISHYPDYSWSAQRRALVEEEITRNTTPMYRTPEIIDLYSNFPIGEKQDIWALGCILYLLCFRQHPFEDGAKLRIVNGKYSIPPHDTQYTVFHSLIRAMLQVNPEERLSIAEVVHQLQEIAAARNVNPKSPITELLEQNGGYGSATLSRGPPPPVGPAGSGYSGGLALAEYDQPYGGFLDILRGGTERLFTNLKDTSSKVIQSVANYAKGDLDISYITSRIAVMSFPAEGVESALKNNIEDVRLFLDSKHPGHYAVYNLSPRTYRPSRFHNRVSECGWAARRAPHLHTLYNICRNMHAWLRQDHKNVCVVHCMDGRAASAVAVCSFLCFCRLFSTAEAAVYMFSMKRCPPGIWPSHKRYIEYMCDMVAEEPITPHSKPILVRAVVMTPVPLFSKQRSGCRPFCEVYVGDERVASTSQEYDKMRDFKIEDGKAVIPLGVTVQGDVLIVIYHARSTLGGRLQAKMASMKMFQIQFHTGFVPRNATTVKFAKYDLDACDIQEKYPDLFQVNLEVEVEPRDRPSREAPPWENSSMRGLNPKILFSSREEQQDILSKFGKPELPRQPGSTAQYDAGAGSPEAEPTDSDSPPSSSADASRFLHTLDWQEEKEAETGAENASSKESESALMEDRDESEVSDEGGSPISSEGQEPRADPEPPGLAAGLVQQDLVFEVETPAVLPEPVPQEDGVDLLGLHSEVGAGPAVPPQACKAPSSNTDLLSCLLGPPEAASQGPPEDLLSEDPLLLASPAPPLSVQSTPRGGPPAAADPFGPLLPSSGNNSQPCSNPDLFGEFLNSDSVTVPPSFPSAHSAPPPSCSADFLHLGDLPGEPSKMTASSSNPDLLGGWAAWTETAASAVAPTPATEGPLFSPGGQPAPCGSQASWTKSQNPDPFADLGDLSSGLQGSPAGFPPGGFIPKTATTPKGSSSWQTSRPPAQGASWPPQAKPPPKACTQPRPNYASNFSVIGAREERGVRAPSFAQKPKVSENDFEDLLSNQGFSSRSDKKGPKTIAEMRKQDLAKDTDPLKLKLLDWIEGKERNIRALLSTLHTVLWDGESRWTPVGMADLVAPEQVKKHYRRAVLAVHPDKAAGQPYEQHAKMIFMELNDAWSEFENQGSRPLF
UniProt Q96RR4, sequence (whole entry, looked up): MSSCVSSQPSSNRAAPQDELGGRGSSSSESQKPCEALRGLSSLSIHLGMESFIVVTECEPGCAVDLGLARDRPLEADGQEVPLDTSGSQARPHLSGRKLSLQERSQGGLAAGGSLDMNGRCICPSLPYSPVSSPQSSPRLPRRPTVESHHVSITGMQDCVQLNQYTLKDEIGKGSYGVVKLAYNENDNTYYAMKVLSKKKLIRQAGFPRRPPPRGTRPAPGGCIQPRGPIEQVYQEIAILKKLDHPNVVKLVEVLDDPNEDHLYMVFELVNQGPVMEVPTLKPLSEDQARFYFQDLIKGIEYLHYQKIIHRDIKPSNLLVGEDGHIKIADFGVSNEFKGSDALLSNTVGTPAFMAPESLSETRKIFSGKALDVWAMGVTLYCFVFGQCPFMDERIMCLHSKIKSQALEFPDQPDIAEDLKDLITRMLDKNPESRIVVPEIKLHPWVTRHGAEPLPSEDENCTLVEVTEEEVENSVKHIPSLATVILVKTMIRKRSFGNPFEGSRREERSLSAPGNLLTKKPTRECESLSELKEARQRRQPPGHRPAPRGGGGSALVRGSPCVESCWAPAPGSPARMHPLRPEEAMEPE

Block 1 — technique: protein-binding microarray; form: double-stranded DNA, one strand shown; medium: in vitro; concentration: 2540 nM top; setting: 60-bp whole probe; with: salmon DNA 0.4 mg/ml; baseline: random background probes; direction: higher = stronger binding; all sequences stand within: GCCTAGCAC … GTCTTGATTCGCTTGACGCTGCTG
Target: Interferon regulatory factor 3, full length, phosphomimetic (IRF3, Homo sapiens, UniProt Q14653, residues 1-427, S386D/S396D/S398D/S402D/T404D/S405D)
Target sequence (chain): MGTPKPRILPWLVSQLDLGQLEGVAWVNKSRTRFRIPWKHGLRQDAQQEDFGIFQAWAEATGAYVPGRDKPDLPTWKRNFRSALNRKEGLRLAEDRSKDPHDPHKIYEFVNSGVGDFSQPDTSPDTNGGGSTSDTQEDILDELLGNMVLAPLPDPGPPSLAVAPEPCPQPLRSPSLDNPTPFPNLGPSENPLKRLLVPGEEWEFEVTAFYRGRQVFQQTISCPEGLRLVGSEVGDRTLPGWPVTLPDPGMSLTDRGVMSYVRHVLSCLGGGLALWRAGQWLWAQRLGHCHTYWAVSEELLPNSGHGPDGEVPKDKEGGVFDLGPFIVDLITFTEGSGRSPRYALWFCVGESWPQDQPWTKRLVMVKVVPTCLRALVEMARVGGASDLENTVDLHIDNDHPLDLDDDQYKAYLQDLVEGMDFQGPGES
`TTAGATATCAGTATCGATTGGTGCTAG`: “fitted relative affinity” 1.37 z-score.
For `TTAGAACTGAGTATTGATTAGTGCTAG`, “fitted relative affinity” read -0.315 z-score.
Under “fitted relative affinity”, `CACGAACTGAGTCTCGAGACGTGCTAG` is recorded as -0.121 z-score.
For `GACGATCTCAGTTGCGAGACGTGCTAG`, “fitted relative affinity” read 0.794 z-score.
`TTAGTTCTCCTTATCCTTTAGTGCTAG` — result for “fitted relative affinity”: 2.8 z-score.
`GCAGGGTATAGGCATTCCCTGTGCTAG` — result for “fitted relative affinity”: -0.942 z-score.
For `TTAGGTCTCCTTATCCTTGAGTGCTAG`, “fitted relative affinity” read 2.66 z-score.
For `TTAGAACTAGGGACTGGATTAGTGCTA`, “fitted relative affinity” read -0.65 z-score.

Block 2 — effect on: enzyme activity; action: inhibitor; concentration: 0.5 µM; baseline: control
Target: Cyclin-dependent kinase 2, with cyclin A (CDK2, Homo sapiens, UniProt P24941)
`O=C1NC(=O)C(c2cn(CCCn3ccnc3)c3ccccc23)=C1Nc1ccccc1` has a remaining activity of 83.4%.
For `C#Cc1cccc(Nc2ncnc3cc(OCCOC)c(OCCOC)cc23)c1`, the remaining activity was 95.9%.
`CCOC(=O)c1c(C)[nH]c(/C=C2\C(=O)Nc3ccccc32)c1C` gave a remaining activity of 94.5%.
For `Cc1nc(-c2ccccc2)c(-c2ccncc2)o1`, the remaining activity was 104%.
`O=C(CCCc1ccc(-c2ccccc2F)cc1)Nc1ccc(O)cc1` has a remaining activity of 92.7%.
For `COc1cc2ncnc(Nc3ccc(F)c(Cl)c3)c2cc1OCCCN1CCOCC1`, the remaining activity was 95.9%.
With `COc1ccc(CNC(=O)Nc2ncc([N+](=O)[O-])s2)cc1` the remaining activity was 93.3%.
For `O=C(Nc1cccc(Nc2cc(Nc3cccc(C(F)(F)F)c3)ncn2)c1)C1CC1`, the remaining activity was 99.5%.
For `COc1ccc(OC)c2c(=S)c3ccccc3[nH]c12`, the remaining activity was 88.6%.
`CO[C@H]1C[C@@H]2CC[C@@H](C)[C@@](O)(O2)C(=O)C(=O)N2CCCC[C@H]2C(=O)O[C@H]([C@H](C)C[C@@H]2CC[C@@H](O)[C@H](OC)C2)CC(=O)[C@H](C)/C=C(\C)[C@@H](O)[C@@H](OC)C(=O)[C@H](C)C[C@H](C)/C=C/C=C/C=C/1C` has a remaining activity of 101%.
For `O=C(O)c1ccc2c3c1cccc3c(=O)n1c3ccccc3nc21`, the remaining activity was 82.7%.
The remaining activity of `O=S(=O)(c1cccc2cnccc12)N1CCCNCC1` is reported as 93.4%.
For `N#CC(C#N)=C(N)/C(C#N)=C/c1ccc(O)cc1`, the remaining activity was 97.9%.
With `Nc1[nH]nc2nc3ccccc3nc12` the remaining activity was 86.2%.

Block 3 — effect on: cell-free assay; technique: competition with immobilised ligand; concentration: 1 µM
Compound: O=C(NS(=O)(=O)c1ccc(NCC2CCOCC2)c([N+](=O)[O-])c1)c1ccc(N2CCN(Cc3ccc(C(F)(F)F)cc3-c3ccc(Cl)cc3)CC2)cc1Oc1cnc2[nH]ccc2c1
It gave 99% for remaining binding (Receptor-type tyrosine-protein kinase FLT3 (FLT3, Homo sapiens, UniProt P36888, D835Y)).
The remaining binding was 100% (Vascular endothelial growth factor receptor 2 (KDR, Homo sapiens, UniProt P35968)).
Calcium/calmodulin-dependent protein kinase kinase 2 (CAMKK2, Homo sapiens, UniProt Q96RR4) — remaining binding: 99%.
Serine/threonine-protein kinase VRK2 (VRK2, Homo sapiens, UniProt Q86Y07) — remaining binding: 89%.
Cyclin-dependent kinase 15 (CDK15, Homo sapiens, UniProt Q96Q40) — remaining binding: 100%.
For Proto-oncogene tyrosine-protein kinase receptor Ret (RET, Homo sapiens, UniProt P07949, M918T): remaining binding read 100%.
Discoidin domain-containing receptor 2 (DDR2, Homo sapiens, UniProt Q16832) — remaining binding: 90%.
It gave 100% for remaining binding (Ribosomal protein S6 kinase alpha-3, C-terminal kinase domain (RPS6KA3, Homo sapiens, UniProt P51812)).
It gave 100% for remaining binding (Serine/threonine-protein kinase Nek4 (NEK4, Homo sapiens, UniProt P51957)).
It gave 100% for remaining binding (Cyclin-dependent kinase 14 (CDK14, Homo sapiens, UniProt O94921)).
It gave 89% for remaining binding (STE20/SPS1-related proline-alanine-rich protein kinase (STK39, Homo sapiens, UniProt Q9UEW8)).
The remaining binding was 100% (Cyclin-G-associated kinase (GAK, Homo sapiens, UniProt O14976)).
For Tyrosine-protein kinase JAK3, JH1 (JAK3, Homo sapiens, UniProt P52333): remaining binding read 85%.
It gave 84% for remaining binding (Serine/threonine-protein kinase ICK (CILK1, Homo sapiens, UniProt Q9UPZ9)).
Ephrin type-A receptor 1 (EPHA1, Homo sapiens, UniProt P21709) — remaining binding: 98%.
The remaining binding was 100% (Vascular endothelial growth factor receptor 1 (FLT1, Homo sapiens, UniProt P17948)).

Other studies, line by line — technique: cross-linking MS
Under cross-linked residues, `GTF3C1 (Homo sapiens, UniProt Q12789)` is recorded as “K1636 to K79” (MCM8 (Homo sapiens, UniProt Q9UJA3); cell fractions; with: DSSO).
`NGDN (Homo sapiens, UniProt Q8NEJ9)`: interaction screen “cross-linked” (AATF (Homo sapiens, UniProt Q9NY61); hits only).
`FLNA (Homo sapiens, UniProt P21333)`: cross-linked residues “K771 to Y184” (AFG2A (Homo sapiens, UniProt Q8NB90); cell fractions; with: DSSO).
Under cross-linked residues, `COPS7B (Homo sapiens, UniProt Q9H9Q2)` is recorded as “E212 to E396” (COPS3 (Homo sapiens, UniProt Q9UNS2); cell fractions; with: DHSO).
